# Measurements from different studies.
# Compare with care: the assays were run in different laboratories.
# TMPRSS2: Transmembrane protease serine 2 (TMPRSS2, Homo sapiens, UniProt O15393)
# UniProt O15393, sequence (whole entry, looked up): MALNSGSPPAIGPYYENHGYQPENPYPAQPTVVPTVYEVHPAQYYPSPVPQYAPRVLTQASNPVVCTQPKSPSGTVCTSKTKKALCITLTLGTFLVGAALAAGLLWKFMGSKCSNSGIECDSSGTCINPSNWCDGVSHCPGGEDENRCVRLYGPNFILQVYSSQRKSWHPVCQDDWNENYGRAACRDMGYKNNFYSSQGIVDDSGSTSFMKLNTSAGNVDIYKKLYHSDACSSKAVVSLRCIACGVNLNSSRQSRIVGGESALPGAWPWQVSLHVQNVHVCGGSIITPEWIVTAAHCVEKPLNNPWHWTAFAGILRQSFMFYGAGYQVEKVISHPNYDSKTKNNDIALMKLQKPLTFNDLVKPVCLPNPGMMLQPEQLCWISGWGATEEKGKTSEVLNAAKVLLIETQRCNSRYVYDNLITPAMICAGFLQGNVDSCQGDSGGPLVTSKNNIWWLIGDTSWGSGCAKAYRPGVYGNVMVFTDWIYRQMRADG
# UniProt P07711, sequence (whole entry, looked up): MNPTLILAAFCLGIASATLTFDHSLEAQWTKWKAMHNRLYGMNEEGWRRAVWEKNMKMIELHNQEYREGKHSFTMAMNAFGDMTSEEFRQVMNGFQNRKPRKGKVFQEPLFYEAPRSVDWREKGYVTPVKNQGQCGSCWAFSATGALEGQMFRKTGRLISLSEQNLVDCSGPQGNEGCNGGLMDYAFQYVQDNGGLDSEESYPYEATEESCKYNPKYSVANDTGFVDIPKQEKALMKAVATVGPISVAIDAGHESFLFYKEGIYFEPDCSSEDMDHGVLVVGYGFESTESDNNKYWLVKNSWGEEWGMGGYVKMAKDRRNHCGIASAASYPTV
# UniProt Q8NI60, sequence (whole entry, looked up): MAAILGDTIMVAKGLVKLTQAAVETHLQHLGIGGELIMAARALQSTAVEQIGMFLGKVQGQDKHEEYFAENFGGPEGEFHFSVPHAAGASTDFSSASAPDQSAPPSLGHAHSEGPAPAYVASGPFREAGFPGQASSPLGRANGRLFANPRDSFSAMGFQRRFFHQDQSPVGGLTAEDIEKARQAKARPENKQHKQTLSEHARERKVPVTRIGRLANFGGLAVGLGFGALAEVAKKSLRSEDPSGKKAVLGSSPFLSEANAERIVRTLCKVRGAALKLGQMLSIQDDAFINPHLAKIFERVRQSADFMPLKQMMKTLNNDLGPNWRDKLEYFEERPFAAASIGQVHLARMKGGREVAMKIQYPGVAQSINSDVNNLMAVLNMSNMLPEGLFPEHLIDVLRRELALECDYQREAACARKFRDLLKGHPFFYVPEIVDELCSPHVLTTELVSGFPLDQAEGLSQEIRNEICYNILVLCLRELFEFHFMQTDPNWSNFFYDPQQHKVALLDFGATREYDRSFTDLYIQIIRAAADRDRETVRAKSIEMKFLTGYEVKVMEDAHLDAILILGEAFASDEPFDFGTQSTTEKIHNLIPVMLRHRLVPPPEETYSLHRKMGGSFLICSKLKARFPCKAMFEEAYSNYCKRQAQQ
# UniProt O14920, sequence (whole entry, looked up): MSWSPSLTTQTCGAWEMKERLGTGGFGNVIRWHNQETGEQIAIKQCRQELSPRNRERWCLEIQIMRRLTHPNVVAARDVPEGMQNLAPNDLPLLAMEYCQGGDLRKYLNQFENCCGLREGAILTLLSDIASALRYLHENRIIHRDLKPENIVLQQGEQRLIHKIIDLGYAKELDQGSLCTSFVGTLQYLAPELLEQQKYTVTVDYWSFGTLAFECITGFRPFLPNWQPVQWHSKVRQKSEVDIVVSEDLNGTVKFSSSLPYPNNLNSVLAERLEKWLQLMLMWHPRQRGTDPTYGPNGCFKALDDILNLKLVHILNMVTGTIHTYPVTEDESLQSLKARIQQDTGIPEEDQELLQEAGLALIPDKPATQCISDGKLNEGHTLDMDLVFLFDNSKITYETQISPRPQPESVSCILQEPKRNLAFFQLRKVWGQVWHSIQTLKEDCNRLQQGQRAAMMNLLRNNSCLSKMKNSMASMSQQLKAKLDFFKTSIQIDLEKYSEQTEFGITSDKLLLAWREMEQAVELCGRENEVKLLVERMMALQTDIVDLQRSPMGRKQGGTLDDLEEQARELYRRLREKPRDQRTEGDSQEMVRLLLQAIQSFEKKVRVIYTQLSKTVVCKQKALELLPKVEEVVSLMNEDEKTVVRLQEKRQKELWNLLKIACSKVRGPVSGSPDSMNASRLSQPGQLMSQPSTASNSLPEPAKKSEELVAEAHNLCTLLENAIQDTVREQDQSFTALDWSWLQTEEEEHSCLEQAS
# UniProt Q00537, sequence (whole entry, looked up): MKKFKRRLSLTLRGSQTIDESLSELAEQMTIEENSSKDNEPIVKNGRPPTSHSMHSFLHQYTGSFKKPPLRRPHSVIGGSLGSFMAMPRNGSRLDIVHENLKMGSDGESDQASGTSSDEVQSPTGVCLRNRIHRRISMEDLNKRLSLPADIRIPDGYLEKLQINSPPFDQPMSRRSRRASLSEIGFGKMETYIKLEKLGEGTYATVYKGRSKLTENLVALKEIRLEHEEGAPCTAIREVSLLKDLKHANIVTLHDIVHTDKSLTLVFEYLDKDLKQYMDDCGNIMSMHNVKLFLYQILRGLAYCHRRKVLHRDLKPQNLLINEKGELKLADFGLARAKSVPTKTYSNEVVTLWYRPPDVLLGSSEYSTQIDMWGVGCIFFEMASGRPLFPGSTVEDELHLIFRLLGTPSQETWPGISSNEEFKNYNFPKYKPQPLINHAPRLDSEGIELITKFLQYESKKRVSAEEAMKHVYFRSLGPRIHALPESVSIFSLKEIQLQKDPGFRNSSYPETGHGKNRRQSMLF
# UniProt P00519, sequence (whole entry, unmodified, looked up): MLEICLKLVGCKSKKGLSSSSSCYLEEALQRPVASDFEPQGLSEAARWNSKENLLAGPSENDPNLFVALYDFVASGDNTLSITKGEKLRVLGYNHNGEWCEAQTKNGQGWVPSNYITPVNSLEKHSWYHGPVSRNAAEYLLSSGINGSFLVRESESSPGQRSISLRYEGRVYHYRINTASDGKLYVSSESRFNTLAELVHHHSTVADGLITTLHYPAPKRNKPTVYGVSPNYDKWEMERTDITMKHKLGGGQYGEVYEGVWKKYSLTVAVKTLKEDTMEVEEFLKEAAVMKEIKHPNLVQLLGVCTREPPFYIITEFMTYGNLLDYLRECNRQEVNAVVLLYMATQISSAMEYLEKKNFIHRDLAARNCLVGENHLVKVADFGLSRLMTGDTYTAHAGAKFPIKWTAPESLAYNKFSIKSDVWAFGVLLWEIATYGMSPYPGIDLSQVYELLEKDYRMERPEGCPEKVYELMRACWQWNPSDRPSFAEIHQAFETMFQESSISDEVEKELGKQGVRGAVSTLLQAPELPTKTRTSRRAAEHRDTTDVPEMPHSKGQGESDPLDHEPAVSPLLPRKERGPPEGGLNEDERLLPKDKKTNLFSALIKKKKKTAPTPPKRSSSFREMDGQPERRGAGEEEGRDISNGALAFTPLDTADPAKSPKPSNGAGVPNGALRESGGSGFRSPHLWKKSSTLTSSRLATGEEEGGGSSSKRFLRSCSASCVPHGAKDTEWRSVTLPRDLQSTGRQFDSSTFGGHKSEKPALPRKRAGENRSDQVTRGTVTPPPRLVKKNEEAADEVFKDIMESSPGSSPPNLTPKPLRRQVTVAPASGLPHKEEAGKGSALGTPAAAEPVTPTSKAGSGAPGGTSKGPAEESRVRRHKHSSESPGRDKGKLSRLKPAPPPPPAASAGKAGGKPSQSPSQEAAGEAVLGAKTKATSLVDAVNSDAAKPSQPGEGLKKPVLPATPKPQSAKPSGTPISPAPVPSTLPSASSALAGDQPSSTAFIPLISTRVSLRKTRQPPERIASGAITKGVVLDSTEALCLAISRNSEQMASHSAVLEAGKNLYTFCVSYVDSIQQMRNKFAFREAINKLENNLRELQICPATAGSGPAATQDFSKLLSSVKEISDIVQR
# UniProt P08173, sequence (whole entry, looked up): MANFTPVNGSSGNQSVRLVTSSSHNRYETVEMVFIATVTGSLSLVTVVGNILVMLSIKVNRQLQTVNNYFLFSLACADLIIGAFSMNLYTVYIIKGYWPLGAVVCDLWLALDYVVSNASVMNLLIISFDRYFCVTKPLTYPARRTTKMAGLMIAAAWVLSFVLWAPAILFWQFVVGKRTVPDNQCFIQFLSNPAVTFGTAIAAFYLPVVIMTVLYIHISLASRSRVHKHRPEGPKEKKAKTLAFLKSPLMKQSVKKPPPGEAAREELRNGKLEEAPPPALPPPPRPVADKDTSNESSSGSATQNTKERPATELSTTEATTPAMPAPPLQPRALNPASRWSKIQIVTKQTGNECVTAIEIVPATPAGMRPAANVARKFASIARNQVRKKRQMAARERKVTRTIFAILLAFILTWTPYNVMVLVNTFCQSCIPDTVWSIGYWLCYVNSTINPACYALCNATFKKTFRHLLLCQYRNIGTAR
# UniProt P34968, sequence (whole entry, looked up): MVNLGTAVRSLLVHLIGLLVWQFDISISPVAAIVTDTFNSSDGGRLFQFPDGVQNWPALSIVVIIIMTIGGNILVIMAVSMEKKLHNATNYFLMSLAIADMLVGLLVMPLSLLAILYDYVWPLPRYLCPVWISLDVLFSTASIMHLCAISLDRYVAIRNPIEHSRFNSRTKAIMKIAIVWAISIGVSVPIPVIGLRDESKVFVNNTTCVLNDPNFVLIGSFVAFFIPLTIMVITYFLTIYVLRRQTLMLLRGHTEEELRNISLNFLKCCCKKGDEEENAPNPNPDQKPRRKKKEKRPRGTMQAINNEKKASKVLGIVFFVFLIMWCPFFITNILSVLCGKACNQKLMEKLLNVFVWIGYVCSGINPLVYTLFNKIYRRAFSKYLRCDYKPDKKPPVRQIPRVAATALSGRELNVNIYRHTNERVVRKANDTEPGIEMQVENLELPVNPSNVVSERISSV
Compound,target,test,conditions,measurement,result
C#Cc1n[nH]c2c(-c3cn(C(C)c4ccccn4)c(=O)[nH]c3=O)cc(F)cc12 (stereo not drawn),"IRAK4 (Homo sapiens, UniProt Q9NWZ3)","enzyme activity, inhibitor",1 µM,inhibition,12.3%
Oc1ccc(CCc2cc(O)cc(O)c2)cc1,"Procathepsin L (CTSL, Homo sapiens, UniProt P07711)","enzyme activity, inhibitor",100 µM,remaining activity,48.3%
CN1CCC[C@H]1c1cccnc1,"CHRM4 (Homo sapiens, UniProt P08173)",ligand displacement,50 µM,inhibition,-7.23%
CCN(CC)CCCC[C@H](NC(=O)[C@H](CC(C)C)NC(=O)[C@H](C)NC(=O)[C@H](Cc1ccccc1)NC(=O)c1ccc(C(C)(C)C)cc1)C(=O)N[C@@H](CO)C(=O)OC,"KAT2A (Homo sapiens, UniProt Q92830)","thermal stability, DSF",25 µM,ΔTm,0 °C
Cc1nn(C)cc1-c1nc2c(N3CCN(Cc4ccc(Cl)cc4)CC3)c(Cl)cnc2[nH]1,"Tyrosine-protein kinase ABL1, phosphorylated (ABL1, Homo sapiens, UniProt P00519, F317L)","binding, competition with immobilised ligand",1 µM,remaining binding,89%
CC(C)CCC(=O)N[C@@H](Cc1ccc(O)cc1)C(=O)N[C@H](C(=O)N[C@H](CCCNC(=N)N)C(=O)c1nc2ccccc2s1)C(C)C,TMPRSS2,"enzyme activity, inhibitor",1 nM,activity vs control,52%
Nc1ncc(-c2nc(N3CCOCC3)nc(N3CCOCC3)n2)c(C(F)F)n1,"COQ8A (Homo sapiens, UniProt Q8NI60)","binding, competition with immobilised ligand",10 µM,remaining binding,68%
CCCCCCCCC(=O)NC(CCCNC(=N)N)C(=O)N[C@@H](CCC(N)=O)C(=O)N[C@@H](Cc1ccccc1)C(=O)N[C@@H](CCCNC(=N)N)C(=O)c1nc2ccccc2s1 (stereo partly drawn),TMPRSS2,"enzyme activity, inhibitor",1 nM,activity vs control,80%
[2H]c1c([2H])c([C@]2([2H])CCCN2C(=O)C(C)(C)Oc2ccc3cn[nH]c3c2)c([2H])c([2H])c1C([2H])([2H])[2H],"IKBKB (Homo sapiens, UniProt O14920)","binding, competition with immobilised ligand",1 µM,remaining binding,83%
COc1cc(C(F)(F)F)c(OC)cc1C1CCCNC1 (stereo not drawn),"Htr2c (Mus musculus, UniProt P34968)","G protein activation, agonist, BRET",,Emax,76%
COc1ncccc1-c1cnn2ccc(N3CCN(C(=O)OC(C)C)CC3)nc12,"CDK17 (Homo sapiens, UniProt Q00537)","binding, competition with immobilised ligand",1 µM,remaining binding,100%
C[C@H](NC(=O)[C@H](CCC(N)=O)NC(=O)[C@@H](N)CCCCNC(=N)N)C(=O)N[C@H](CCCNC(=N)N)C(=O)c1nc2ccccc2s1,TMPRSS2,"enzyme activity, inhibitor",1 nM,activity vs control,91%
